Experimental data pooled from the literature.
Protocols differ between the studies behind these lines.

Structure (SMILES) | cell line | assay | setting | scale | endpoint | value
Cc1ncsc1-c1ccc(C(C)NC(=O)C2CC(O)CN2C(=O)C(NC(=O)CCCCCCCCCCN2CCCC(Nc3ncc(Cl)c(Nc4ccccc4S(=O)(=O)C(C)C)n3)C2)C(C)(C)C)cc1 (centres unmarked) | 22Rv1 | RNA-seq, measured: LRIG2 mRNA | concentration not given | baseline: DMSO | log2 fold change | -1.28
CC(C)(C)c1cc(-c2ccc3cccnc3n2)nc(-c2ccc3cccnc3n2)c1.[Cl-].[Cl-].[Ru+2].c1ccc2cc3nc4c5cccnc5c5ncccc5c4nc3cc2c1 | A-375 | resazurin | with: light 733 nm, 9 mW, 100 J/cm2 |  | EC50 | 5.35 µM
CC(C)c1ccc(N(C)c2ccc3c(c2)OCC[C@H]3CNc2cnccc2C(=O)O)cc1 | ONS-76 | cell viability, CellTiter-Glo | 7 days |  | IC50 | ≥ 10 µM
CNS(=O)(=O)Nc1nccc(Cc2c(C)c3ccc(Oc4ncccc4F)cc3oc2=O)c1F | MKN-74 | cell viability | 7 days |  | IC50 | > 1 µM
CN1CCCNC(=O)c2cccc(c2)C(=O)NCCCN(C)CCCNc2cccc3c2C(=O)c2cccc(c2C3=O)NCCC1 | SAS | RNA-Seq, measured: CHTF8 mRNA | 1 µM, 6 h | baseline: untreated cells | log2 fold change | 0.563
[Cl-].[Cl-].[Ru+2].c1cc(-c2ccc3cccnc3n2)nc(-c2ccc3cccnc3n2)c1.c1ccc2cc3nc4c5cccnc5c5ncccc5c4nc3cc2c1 | A-375 | photocytotoxicity, resazurin | visible light 400-700 nm, 20 mW, 100 J/cm2 |  | EC50 | 4.87 µM
CCN(C(=O)c1cc(F)ccc1Oc1nncnc1N1CCC2(C1)CN([C@H](CCCN(C)CCOC)C(C)C)C2)C(C)C | SU-DHL-6 | cell growth or viability | 72 h |  | GI50 | > 10 µM
CCN(CC)CC(=O)Nc1cccc(-n2cc(-c3ccc4ccc(-c5cn(-c6cccc(NC(=O)CN(CC)CC)c6)nn5)cc4c3)nn2)c1 | RCC4 | PCR angiogenesis array, measured: PLG | 5 x IC50, 2 h, normoxia | baseline: untreated | fold regulation | 1.06
